{"data": "Experimental data pooled from the literature", "matrix": "plasma", "note": "Protocols differ between the studies behind these lines. Numbers after ± are the reported error."}
{"Structure (SMILES)": "CCn1c(C(=O)c2cc(C)cc(C#N)c2)c(C(C)C)c(=O)[nH]c1=O", "system": "healthy humans", "conditions": "oral, 150 mg once daily, 7 days", "quantity": "Cmax at steady state", "result": "740 ± 248 ng/mL"}
{"Structure (SMILES)": "CCCC(CCC)C(=O)O", "assay": "regression tree, item: hearing loss", "system": "human", "conditions": "intravenous", "quantity": "Cmax breakpoint", "result": "> 276000 ng/mL"}
{"Structure (SMILES)": "O=C(NC[C@H]1CN(c2ccc(N3CCOCC3=O)cc2)C(=O)O1)c1ccc(Cl)s1", "system": "human, normal renal function", "conditions": "oral, 10 mg, with: erythromycin at steady state", "how to read": "relative to: same subjects, compound alone", "quantity": "Cmax increase", "result": "~40%"}
{"Structure (SMILES)": "CC(C)c1nc(N(C)S(C)(=O)=O)nc(-c2ccc(F)cc2)c1/C=C/[C@@H](O)C[C@@H](O)CC(=O)O", "system": "human", "conditions": "oral, with: finerenone dosed 4.25 h after", "how to read": "relative to: with over without finerenone", "quantity": "Cmax ratio", "result": "96.8%"}
{"Structure (SMILES)": "COCCCCn1c(C(=O)N(CC(C)C)[C@@H]2CNC[C@H](C(=O)N3CCOCC3)C2)nc2ccccc21", "system": "non-elderly human", "conditions": "oral, 80 mg once daily", "how to read": "relative to: later day over first day", "quantity": "Cmax accumulation ratio", "result": "105%"}
{"Structure (SMILES)": "COC(=O)c1ccc2c(c1)NC(=O)/C2=C(\\Nc1ccc(N(C)C(=O)CN2CCN(C)CC2)cc1)c1ccccc1", "system": "human moderate liver impairment", "conditions": "oral, 100 mg twice daily, geometric mean", "quantity": "Cmax steady state", "result": "55.7 ng/mL"}
{"Structure (SMILES)": "CC[C@@H]1C(=O)N(C)c2cnc(Nc3ccc(C(=O)N[C@H]4CC[C@H](N5CCN(CC6CC6)CC5)CC4)cc3OC)nc2N1C(C)C", "system": "human", "conditions": "intravenous infusion, 150 mg over 2 h, first infusion", "quantity": "Cmax geometric mean", "result": "235 ng/mL"}
{"Structure (SMILES)": "CN(C)C/C=C/C(=O)Nc1cc2c(Nc3ccc(F)c(Cl)c3)ncnc2cc1O[C@H]1CCOC1", "system": "human", "conditions": "oral, 10 mg once daily, day 27, geometric mean", "quantity": "Cmax at steady state", "result": "3.18 ng/mL"}
{"Structure (SMILES)": "COc1cccc(-c2ccc(NC(=O)C3=C(C(=O)O)CCC3)c(F)c2)c1", "system": "male healthy human", "conditions": "oral, 50 mg daily, day 13-14, not pre-dosed", "how to read": "relative to: day 0-1", "quantity": "Cmax accumulation ratio", "result": 2.16}
{"note": "Some of these lines once more:"}
{"Structure (SMILES)": "CC(C)c1nc(N(C)S(C)(=O)=O)nc(-c2ccc(F)cc2)c1/C=C/[C@@H](O)C[C@@H](O)CC(=O)O", "system": "human", "conditions": "oral, with: finerenone dosed 4.25 h after", "how to read": "relative to: with over without finerenone", "quantity": "Cmax ratio", "result": "96.8%"}
